Results gathered from unrelated publications.
Numbered parts are unrelated; each lists some results of a single study.

Study 1
Target: Fragile X messenger ribonucleoprotein 1, C-terminal low-complexity region (Fmr1, Mus musculus, UniProt P35922)
Method: RNA Bind-n-Seq
Molecule type: RNA
Sample: in vitro
Tested at: 200 nM
Notes: whole 134-nt RNA, ends assumed
Together with: 150 mM LiCl
Baseline: input library
Reading: higher = stronger binding
Endpoint: log2 enrichment
Each molecule: 7-deaza-guanosine replaces G
All sequences stand within: GGGAGUUCUACAGUCCGACGAUC … UGGAAUUCUCGGGUGUCAAGG
ACCAUGCAGGUGGGCAUCCUUGGGAAGUGGGGCAAGGGGGGGAUAGGGAGGGGGGUAACACUUUGGGAACAGGUGGUCCCAGGUCGUUUC: 1.43
AAGUCCUGUGCUACACAUCGUAUGUACCGAAUCGGAAAAGGGGAAAAGGGGAAAAGGAAAGUAUUAUGUUACGCCGUUCGGAUCUGCACU: 0.193
UGGCCCUGGUGGCAUGCGGGGAGGAAGAGGUGGCCUCAUGGAUCGUGGUGGUCCCGGUGGAAUGUUCUGAGGUGGCCGUGGUGGAGACAG: -0.344
UAGUGAUGAAAAAUUUCUCCCUUCUAGGUUUCCCUUGGGGGCUUUGAAAUAACACCACCAGUGGUCUUAAGGUUGAAGUGUGGUUCAGGG: -1.64
UUCAUUCCUUGGAAGAAGCUGUACCAUCGAUACCUGAUGAAUGAAGAGCAAGCUGUCAGCAAAGUGGACGGCAUCCUGUCUAACUGUGGC: -2.73
AAGUCCUGUGCUACACAUCGUAUGUACCGAAUCGGGAAAGGGAAAAAGGGUUUGGGAAAGUAUUAUGUUACGCCGUUCGGAUCUGCACUU: -2.55
UCCUCAAGUCCUGUGCUACACAUCGUAUGUACCGAAUCGGGGUGGUGGGUGGAAAGUAUUAUGUUACGCCGUUCGGAUCUGCACUUCCAG: -0.132
UGUCGGGGCCAAAGUGGUAACGAACGCCCGCAGCCCGGGGGCUCGAUGCUAUGGAUUCGUCACCAUGUCGACAUCUGACGAGGCGACCAA: -2.92
AAGUCCUGUGCUACACAUCGUAUGUACCGAAUCGGGUUUUUUUGGGAGGGAAAGGGAAAGUAUUAUGUUACGCCGUUCGGAUCUGCACUU: -0.556
CUCAAGUCCUGUGCUACACAUCGUAUGUACCGAAUCGGUGGUUUUUUUGGAGGAAAGUAUUAUGUUACGCCGUUCGGAUCUGCACUUCCA: 0.99
AACUGGAAGAACAGACCCGUAGGGCUCUGGAACUUGAGCAGGAACGGAAGCGUGCCCAGAGCGAGGCUGAAAAGCUGGCCAAGGAGCGUC: -1.4

Study 2
Target: Histone acetyltransferase KAT6A, both winged helices, GST fusion (KAT6A, Homo sapiens, UniProt Q92794, residues 1-181)
Method: protein binding microarray
Molecule type: double-stranded DNA, one strand shown
Sample: in vitro
Tested at: not given
Notes: 8-mer, flanks averaged, mean of 2 arrays, mostly near background
Baseline: not given
Reading: higher = stronger binding
Endpoint: E-score
Target sequence (chain): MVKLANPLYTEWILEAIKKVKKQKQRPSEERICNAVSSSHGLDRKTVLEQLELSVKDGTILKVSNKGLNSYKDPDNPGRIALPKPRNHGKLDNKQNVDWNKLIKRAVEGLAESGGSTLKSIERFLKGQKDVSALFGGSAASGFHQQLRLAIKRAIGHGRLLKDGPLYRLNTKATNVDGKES
CAACAATG: -0.0206
GCGGATCC: 0.2
AAATTGAT: -0.0519
ACATAAGC: 0.0362
CTGAATCA: -0.151
CATTGGAA: -0.0494
CCACTGAA: 0.0148
CATCAAGA: -0.102
GCGGCGAC: 0.308
GGTGCGGA: 0.126
AGGTCCGC: 0.125
AGACGCCG: 0.216
CCCCGCTA: 0.257
AAAAGCAC: -0.156
GAAGGCTC: -0.142
CTTTGGAA: -0.00741
CGCCATGA: 0.053
AGGGCGCC: 0.141
CGACCTGC: 0.0194
AGTAGACT: -0.177
ATGCTAGC: 0.00656
AGGTAGAT: -0.13
GAGTAGTA: -0.089
AACCCCGG: 0.0246
CGGCGGTA: 0.359

Study 3
Target: RNA binding protein fox-1 homolog 2, RRM domain, GST-SBP tag (RBFOX2, Homo sapiens, UniProt O43251-10, residues 100-194)
Method: RNA Bind-n-Seq
Molecule type: RNA
Sample: in vitro
Tested at: 365 nM
Notes: natural RNA segment, single round, ends assumed
Baseline: no-protein control
Reading: higher = stronger binding
Endpoint: RBNS enrichment (R)
All sequences stand within: GGGAGUUCUACAGUCCGACGAUC … UGGAAUUCUCGGGUGCCAA
Construct (chain): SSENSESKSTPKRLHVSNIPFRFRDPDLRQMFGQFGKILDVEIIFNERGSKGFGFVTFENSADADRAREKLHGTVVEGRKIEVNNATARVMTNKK
AUGUAAACCAUGUGAGAGGGAAAUGUUAAUAAAAAAAUUGCAAAGCCUCAACAUUUGCACAAAACUCGCCCCAUGGUGUGGUUGUUUGUGUUCUCAGUAGUCCAGGAAAG: 0.28
UGUGAAGAGAUGGACAGUCUCAUCAGAAAUGUGGUUGUAUAAUGGUGAGCGCCACAUGAGUGUAGAGGCACUAUAUGACGUAGUGUACUGAGCAUGCAACGCUGCUGCCG: 1.7
UUUUCCUUCCUUCACUGUUGUAGUAAAGAGACAUAUUUCAUGAAUGGCAUUGAUGCUAAUAAAUCCUUUGCACAAAAAUUUGAAUAAACUUCCAGUGGUUUCGAUAACGU: 0.557
CGUAGCCAGGUUCCCUCUGCUUUCCUCUGGGAUAUGGAAAGGGGGCCAAGAGGACUUUGGAUCUCUCCUCCAUACACACUACACUGGCCCUUCUCCCCAUCAAGCGCUCA: 0.662
GGCCUCUUAGGCCAGUGCCGGAGGAGGCAUGCUCCUCUUUCUAUGCCACAGAACAAACACUACUCUAGCAGAGCCUUUCUUGCACUUUAAAGUGAGAUUAAUUUAGCUGU: 0.497
GUUCUGCUCUUUUCUUCAUUUCUUUCCAGAACAACUCUUUCCCACCCCAACACCACUGCCACCACCCCUCUUUUUAUCCUGGUGUGAAACAAUGGUAAUUUGAUAUAUGG: 0.592
GCCUGGCUCAGACUGGAAGGGCUGGGGACCGAGGGCUCCCCUGCCUCUGUUCUCCUUUCUGACCCACUGGGAUUUGCUAGCAGGCUGCCCCAGCCCCAUCACCGAAACAC: 0.733
GAGGCCACACUGGGCGCGGUGCCAGAGGCCCCUGGUCAGGCCAUGCCCCUGCAGUGUCCUUCGUUCACUAGACAUUGCGCCUGGCUUGCUGUGGGUGGGGAUGAGUUGCU: 1.61
UAAAGCCCCCAUUCAUACAAACAAGCAGUAAACAGCCUACCCUGGAAAUACCCCUAGUCCCCAAAGUUCACUUCUAGCUGCAGGUAGACAAUGAGUAACUGGUCUACUGA: 0.498
GAAAAUGAUACUUGUAAAUCUUCUAUUUAACCAUUUGUAAAAUCUAAAUCAUACCCCACUCCCCACUCCCAUUUCGAUUCUCCAGCGGCUCCUUUUAGUUUGUUGUCUUG: 3.11
UUUCAUGUAGAGGAAGGUUAUCCUGUAGCAUAAUGUAUGCACACGGUCAUCUAGUACCUGAUUGGAUAGCUUACAUAUUUAUUGGAUGCUUUGAACAGCUGUAUAUUAGU: 0.735
UUGCUUUUAUGAUUUUUUUUGGUUUGUUUUAAUAUCAGGUGGAUUUUUGUUUCUAAGCAAUAUAUACAUAAAAUCAACCAACAUAUCUGAAAAGGAUCAUGAAACCUGAG: 0.435

Study 4
Target: RING finger protein unkempt homolog, zinc fingers 1-6, GST-SBP tag (UNK, Homo sapiens, UniProt Q9C0B0, residues 30-357)
Method: RNA Bind-n-Seq
Molecule type: RNA
Sample: in vitro
Tested at: not given
Notes: RNA with constant flanks, human and mouse sites, ends assumed
Baseline: input RNA pool
Reading: higher = stronger binding
Endpoint: bound/input enrichment
All sequences stand within: GGGAGUUCUACAGUCCGACGAUC … CAACAGAGGAUUGAGCAUCA
Target sequence (chain): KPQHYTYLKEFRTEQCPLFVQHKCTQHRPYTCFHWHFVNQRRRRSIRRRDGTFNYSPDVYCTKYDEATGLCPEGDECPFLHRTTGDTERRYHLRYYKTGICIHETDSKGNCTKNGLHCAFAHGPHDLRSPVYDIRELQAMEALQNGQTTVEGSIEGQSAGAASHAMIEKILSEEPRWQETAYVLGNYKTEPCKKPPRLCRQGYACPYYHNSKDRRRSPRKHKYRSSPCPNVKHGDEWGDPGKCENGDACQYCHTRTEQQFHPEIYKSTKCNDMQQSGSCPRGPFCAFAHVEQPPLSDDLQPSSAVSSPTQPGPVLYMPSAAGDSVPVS
ACCCAGGCACCAUCCUCUAACAGGCCAAUUGUUCCUGUACCAGGCCCAUUUCCUCUUCUCUUACAUCUUCCUAAUGGACAAACCAUGCCCGUUGCUAUUCCUGCAUCAAUUACAAGUUCU: 0.303 ratio
GGGACUGAUUCAUCCCAAGGACAGGCCACCCCAUUUGAUGCCUGGACUGAUGACAGUAUGGAAGGGCCUAGUCAAAAUGUUGAAGCUGAGUCAAUUCAGGAUGCCAUGAGUAUGGAAGAG: 0.336 ratio
UUUGAAAAAUCCAAACUUACUUUCAGUUGUCUUGGAGGAAGCGAUAAUUUUAAGCAUUUAAAUGAAAUUGAUCUUUUUCAUUGUAUCGAUCCAAAUGAUUCCAAGCAUAAAAGAACAGAC: 0.281 ratio
AUUGGUGGUGCUUCUAGUCGAGGUGAAAAUUCUUAUGGACUAGAAACUGUGUGUAAGGAUAUUAGGAAUUUACGAUUUGCUCAUAAACCUGAGGGGCGGACAAGAAGAUCCAUAUUUGAG: 2.35 ratio
AAAAGACGACGAACUGGAGGCUCUCUGAGAGGUAACCCUUCCUCAAGCCAGGUAGAUGAAGAACAGAUGAAUCGUGUGGUAGAGGAGGAACAGCAACAGCAACUCAGACAACAAGAGGAG: 0.0957 ratio
UUCCACAUCAUUAUUCCAGUCAUGUGGAGCUUUGUAACUGGUCAUUUGCCUUCUUUCAUAAUUAGUGACGUAUGCGACGUAAAGCCACUAGAAAAGGCACAUCUUUUUAAUACUCAUUAU: 0.214 ratio
UAUUAUUUAUCUGUAUUUUUGGAACUAUCGGCUGGCUUGCCUGAAACUUCCAAGUAUGAAUAUCGUGUAGAAAUGGUUCACCAGUCGUGCAAUGAUCCUACAAAAAAUAUCAUUCGAGAA: 0.141 ratio
AAGAGAAAGAAAAUGCCGAAACCAAUCAACGUAAGAGUAACUACAAUGGAUGCUGAGCUGGAAUUUGCCAUUCAGCCCAAUACAACUGGCAAACAACUUUUUGACCAGGUGGUGAAAACA: 0.363 ratio
AGUAGAGAGAUAACAAAAGCUGCUCAGAGUCUCAAUGAACUUGAUUAUCUUUCUCAAGGAAUAGAUCUUUCUGGAAUAGAAGUAAUAGAGAAUGAUCUACUCUUUAUUGCAAGAGCUCGA: 0.53 ratio
CCACUGGACAUUGAAUGGCUGAUAUCCCCGUCUGAUAACCAGAUAGUGGAUCAAGUGAUCAUUUUGUAUUCUGGAGACAAAAUUUAUGAUAACUACUAUCCGGAUCUGAAAGGACGGGUA: 0.562 ratio
UCUCUACGCUGCGGGGAUGCAGCCCGCACCCUGGGGCCCCGGGUAUUUGGGAGAUAUUUUUGCAGCCCAGUCAGACCGUUAAGCUCCUUGCCAGAUAAAAAAAAGGAACUCCUACAGAAU: 0.352 ratio

Excerpt of the above (study 1):
AAGUCCUGUGCUACACAUCGUAUGUACCGAAUCGGGAAAGGGAAAAAGGGUUUGGGAAAGUAUUAUGUUACGCCGUUCGGAUCUGCACUU: -2.55
UGGCCCUGGUGGCAUGCGGGGAGGAAGAGGUGGCCUCAUGGAUCGUGGUGGUCCCGGUGGAAUGUUCUGAGGUGGCCGUGGUGGAGACAG: -0.344
ACCAUGCAGGUGGGCAUCCUUGGGAAGUGGGGCAAGGGGGGGAUAGGGAGGGGGGUAACACUUUGGGAACAGGUGGUCCCAGGUCGUUUC: 1.43
UUCAUUCCUUGGAAGAAGCUGUACCAUCGAUACCUGAUGAAUGAAGAGCAAGCUGUCAGCAAAGUGGACGGCAUCCUGUCUAACUGUGGC: -2.73
CUCAAGUCCUGUGCUACACAUCGUAUGUACCGAAUCGGUGGUUUUUUUGGAGGAAAGUAUUAUGUUACGCCGUUCGGAUCUGCACUUCCA: 0.99
UGUCGGGGCCAAAGUGGUAACGAACGCCCGCAGCCCGGGGGCUCGAUGCUAUGGAUUCGUCACCAUGUCGACAUCUGACGAGGCGACCAA: -2.92
AAGUCCUGUGCUACACAUCGUAUGUACCGAAUCGGAAAAGGGGAAAAGGGGAAAAGGAAAGUAUUAUGUUACGCCGUUCGGAUCUGCACU: 0.193
UAGUGAUGAAAAAUUUCUCCCUUCUAGGUUUCCCUUGGGGGCUUUGAAAUAACACCACCAGUGGUCUUAAGGUUGAAGUGUGGUUCAGGG: -1.64
AACUGGAAGAACAGACCCGUAGGGCUCUGGAACUUGAGCAGGAACGGAAGCGUGCCCAGAGCGAGGCUGAAAAGCUGGCCAAGGAGCGUC: -1.4
